Assay results pooled from the literature.
Parts stem from different laboratories: compare values within a part only.

Set 1
Target: Fragile X messenger ribonucleoprotein 1, C-terminal low-complexity region (Fmr1, Mus musculus, UniProt P35922)
Technique: RNA Bind-n-Seq
Molecule type: RNA
Sample: in vitro
Concentration: 200 nM
Notes: whole 134-nt RNA, ends assumed
Added: 150 mM LiCl
Reference: input library
Reading: higher = stronger binding
Library: 7-deaza-guanosine replaces G
All sequences stand within: GGGAGUUCUACAGUCCGACGAUC … UGGAAUUCUCGGGUGUCAAGG
Sequence	log2 enrichment
GUGCUACACAUCGUAUGUACCGAAUCGGGGAAAAAAAGGGGUUUUUUUGGGGAAAAAAAGGGGAAAGUAUUAUGUUACGCCGUUCGGAUC	-1.79
GUCCUGUGCUACACAUCGUAUGUACCGAAUCGGGGUUUGGGGUUUUUGGGGUUUGGGGAAAGUAUUAUGUUACGCCGUUCGGAUCUGCAC	-0.118
GUCCUGUGCUACACAUCGUAUGUACCGAAUCGGGUUUUUUUGGGUGGGAAAAAAAGGGAAAGUAUUAUGUUACGCCGUUCGGAUCUGCAC	-1.69
ACCAUGCAGGUGGGCAUCUUUGGGAAGUGGGGCAAGGGGGGGAUAGGGAGGGGGGUAACAAAAUGGGAACAGGUGGUCCCAGGUCGUUUC	1.49
GCAGGAAGUAAAAACAAAUGGAAAUGCUUCGGAUAGUGGCAGGGGUGGGGGUUGCUAAGGAAAGGGGGGGAUGGGAGUGGGUAAAGAGUU	1.61
AAGUCCUGUGCUACACAUCGUAUGUACCGAAUCGGGGAGGGGUUUUUGGGGUGGGGAAAGUAUUAUGUUACGCCGUUCGGAUCUGCACUU	-0.00925
CACAGACAACACGCACCCACACAGACACAGAGGGAAGGGGUUGGGAUGGGUACAGGGUGCACAGCAGGGCGGGGUAGGACCCCAGCCCCU	0.122
CAAGUCCUGUGCUACACAUCGUAUGUACCGAAUCGGAAAAGGGGAAAAGGAAAAGGAAAGUAUUAUGUUACGCCGUUCGGAUCUGCACUU	-1.38
CUGUGCUACACAUCGUAUGUACCGAAUCGGGGCCCCCCGGGGCCCCCCGGGGCCCCCCGGGAAAGUAUUAUGUUACGCCGUUCGGAUCUG	-2.67
CCUCAAGUCCUGUGCUACACAUCGUAUGUACCGAAUCGGGUGGUGGGGUGGGGAAAGUAUUAUGUUACGCCGUUCGGAUCUGCACUUCCA	-0.977
UGUGAGCUGACUUUUUGGAUCAACUUUACUUUUCCCUUCUUUUUAGGCAAUUGAAGAUGAAGGUGGUAAUCCUGACGAAAUUGAAAUUAC	0.296

Set 2
Target: RNA binding protein fox-1 homolog 2, RRM domain, GST-SBP tag (RBFOX2, Homo sapiens, UniProt O43251-10, residues 100-194)
Technique: RNA Bind-n-Seq
Molecule type: RNA
Sample: in vitro
Concentration: 365 nM
Notes: natural RNA segment, single round, ends assumed
Reference: no-protein control
Reading: higher = stronger binding
All sequences stand within: GGGAGUUCUACAGUCCGACGAUC … UGGAAUUCUCGGGUGCCAA
Construct (chain): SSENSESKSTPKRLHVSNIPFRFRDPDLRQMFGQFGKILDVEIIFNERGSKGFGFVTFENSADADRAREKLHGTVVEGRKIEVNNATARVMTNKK
Sequence	RBNS enrichment (R)
AGUCAAAAGCAAGCUGGGUUUGCAGCCCACUCCAGCCCAUGGCCUGUUGCCCAGCUCUGUAGACAUCCCUGCUCCCCAGCUGCCCAAAGACCCCCUCCCCAUUGAUGCCA	0.679
GUACUAUUUAGCUUCAGUGUACUAGUCCUGCCACCUGUGUAUUUUUAGGGUGCUAUGGAAAUAAUGAAAAGAAACGGGGAUUUCAGAAGAAAAUUGUAACCAAAUUCAUA	0.665
GAAAGCACAAUAAAAAUGAGUAACAGAAAAAGCACAUAUACUAGCCUAACAGAUUGGCUUGUUUUAAAGCAAAGACUGAAUUGAAGGUUACAUGUUUUAGGAUAAACUAA	0.624
UGGAAAUGAGGUCUUAGGCUCUUCUUUAAAUGUGUGUACUUUUAUCUGUGAGAGACUGACUAUAGCAGAAGCGGAUUCAAAGAAGACAGACCUUGACCAAAGAUGCUGAA	0.464
CAAUUACAUUUGAAUUUAAAAAUAUUGAGCUCUUGAUUACAAUUUAAUACAUUGUAAAAAGUAUUAAAUCCUUUGAAACAUCUUUUGUUGCUUAUUUAGUUUUUGUUUCU	1.42
AACUUGAGAUUUUUAAAGUUAACUAUUAACACAGUUUUAACAUAAGUUAUCCCACUGGGUUUAAAAGCAUCUUGAAUGUAUAACCCUUCUGUAACCCAGGCUGGUCUUUG	0.47
CAACUUUUUUGAUAUUUACUAGAAAUGAUGCAAUAUAUCCUUUCUGAGAUAUUUACAGUAUUAUUAAAGGGUUGGGCUGUUUUGCAUAACAAACUUUUUAUUGGCAUACC	0.334
GUCUUUGAGAUAGACAUUGGAGCAGACGGACUCUGGAAAGUGCUUCUGUGGCUGUGGUCUGUCCUGGGAACAGACGUGGUAAAAUGCGUUUCCUAUCUCUAAAAUAUCUA	0.458
GCCCAAGCUAUCUCAACUACAGGAGCGGAGGGGGACGAAUGAUUGUGAACACAAAGUCUGACUUGAAGAUUCUCUGCAAUGAAGAGAAUUCAUUCAUUCACUCUGCUCAA	0.271
CAUGAUAAAGAUUAUUAUUUAAGAUAUACUUGUAUUUAUACCUCAGAUAUUCUUUCGGGUUUUGUACCUCAAGGUUCCCCUCCCCACAUUGUAAAUACACUUUAAGUGAA	0.455
UAAUAUGAACCAACAAUCUGGAGCACACCGAAGGGCAAUCUAAAUUGUGGCUUGAAGGACUGCACUAAAACCCACUAAAAAGAUGCGAAAACCUGAUGAGGGCAAACCAG	0.405
UUCCUGUAAUCACACGAGCACAUUUAUAUAUGCAGUUUCCCAUGGAUAGGCGUGUGACCCUGGUUGAGUGGCACUUGCGGUUUCAUCUUGGUGGCAACUCCUUUGCAAUG	0.482

Set 3
Target: RING finger protein unkempt homolog, zinc fingers 1-6, GST-SBP tag (UNK, Homo sapiens, UniProt Q9C0B0, residues 30-357)
Sequence of UniProt Q9C0B0 (30-357, looked up): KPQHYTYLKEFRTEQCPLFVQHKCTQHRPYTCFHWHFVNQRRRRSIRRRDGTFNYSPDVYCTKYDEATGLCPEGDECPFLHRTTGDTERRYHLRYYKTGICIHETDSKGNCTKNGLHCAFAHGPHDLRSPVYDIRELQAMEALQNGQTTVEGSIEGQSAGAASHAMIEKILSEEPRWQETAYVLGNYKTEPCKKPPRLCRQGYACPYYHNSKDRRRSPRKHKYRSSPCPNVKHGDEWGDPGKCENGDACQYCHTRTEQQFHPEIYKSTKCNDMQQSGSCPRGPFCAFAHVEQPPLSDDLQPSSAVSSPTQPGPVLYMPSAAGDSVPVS
Technique: RNA Bind-n-Seq
Molecule type: RNA
Sample: in vitro
Concentration: not given
Notes: RNA with constant flanks, human-mouse chimeric sites, ends assumed
Reference: input RNA pool
Reading: higher = stronger binding
All sequences stand within: GGGAGUUCUACAGUCCGACGAUC … CAACAGAGGAUUGAGCAUCA
Sequence	bound/input enrichment [ratio]
UAAAUUAGGGCUGCCGUUUUCUGUUUCUCCCUGGGCUGCGGAAAGCCAGAAGAUUUUAUCUAGCUUAUACAAGGCUGCUGGAGCUUGCUCUUUUUUUCCCUCUCUCUGUUUUUGGCUGCA	0.935
AAAUUUCCCCUCCUGAGACCUCCUCCGAAGUUGGAGUCUCUUACAGAUGCCUCAUCCCCUGUUAGCGUUUUAGUUUGGACCACCCAGCCUUGGACGAUUCCCGCCAACCAGGCAAUUUGC	1.14
CUCAUGGCUGCAGAAACAGGAAGUGGAAAAACUGGUGCAUUUAGUAUUCCAGUUAUCCAGAUAGUGUAUGAAACUCUGAAAGACCAACAGGAAGGCAAGAAAGGGAAAACAACUAUUAAA	0.455
GUUCGACUCUGGGAUCAUGCCACAAUGACAGAAGUGAAAUCUCUGAAUUUUAAUAUGUCUGUUAGCAGCAUGGAGUAUAUUCCUGAAGGAGAGAUUUUGGUUAUUACUUAUGGACGAUCU	0.244
UCGGAUGCUGUGCUGGGUCACUUUCCGUAUCCUGAUCCUUCACAGUGGACAGAUGAAGAACUGGGAAUCCCUCCUGAUGACGAGGACUGACACUGUAAACUCUCUGGACGAGUAGGAGCA	0.717
CUGUGUGUGCUGAAUAAAUGGCUUGUAAAGAAGUUUUUCCAAGCUGUAACCCAUGCUGUUAUUAUAGUUGCUGCAAAAUGUUCUUCCUAUUGAUGUUGUUUGUUUACAACUGAAGGUCUC	0.223
GCAUAUGGUUAUCGAGGAAAGGACUGUAGAGCGAAUGUAUACCUGCUUCCCACAGGGGAGAUAGUUUAUUUUAUCGCCUCAGUGGUAGUCCUGUUUAAUUAUGAGGAGAGAACUCAGCGA	0.373
UGUAGUUUCUUGAUUUAUCAUUUUUCUCUUUUCUUUCUUUCCUUUAGGAAAAGCCUAAAGAUUAGGUUGUAAGAAAAGAAAAUAGAAUGUUUCGAAGACCUGUGUUACAGGUAUUUCGUC	0.475
CUCAUGGCUGCAGAAACAGGAAGUGGCAAAACUGGUGCAUUUAGUAUUCCAGUUAUCCAGAUAGUGUAUGAAACUCUGAAAGACCAACAGGAAGGAAAGAAAGGGAAAACAACUAUUAAA	0.505
CCACCAGGAUCCCAGAAACAUGACCCUUGCUGCCUACAAGGAGAAGAUGAAGGAGCUCCCGCUGGUGUCCUUGUUCUGCUCCUGCUUCCUGGCCGAUCCCCUGAAUAAGUCGUCCUACAA	0.118
CUCGGCACUGGUACCCUUUACAUCGCGGAGAGCCGCCUGUCCUGGUUAGAUGGUUCGGGAUUAGGAUUCUCACUGGAAUACCCCACCAUUAGUUUACAUGCAUUAUCCAGGGAUCCAAAC	3.17

Set 4
Target: Phosphate system positive regulatory protein PHO4, full length, GST-tagged (PHO4, Saccharomyces cerevisiae, UniProt P07270, residues 1-312)
Technique: competition protein-binding microarray
Molecule type: double-stranded DNA, one strand shown
Sample: in vitro
Concentration: 2 µM
Notes: whole 60-bp probe, lowest competitor level
Added: Cbf1 competitor, 0.05 µM
Reading: higher = stronger binding
All sequences stand within: … GTCTTGATTCGCTTGACGCTGCTG
Construct (chain): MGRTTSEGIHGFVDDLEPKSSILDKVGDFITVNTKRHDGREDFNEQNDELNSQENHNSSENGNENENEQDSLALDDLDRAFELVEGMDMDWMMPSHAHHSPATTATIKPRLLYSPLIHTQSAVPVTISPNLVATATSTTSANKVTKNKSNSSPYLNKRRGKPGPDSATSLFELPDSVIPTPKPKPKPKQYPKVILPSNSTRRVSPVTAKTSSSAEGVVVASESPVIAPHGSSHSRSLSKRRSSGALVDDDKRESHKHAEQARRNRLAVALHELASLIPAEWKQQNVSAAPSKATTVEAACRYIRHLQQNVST
Sequence	fluorescence intensity
AAAAGTGTCTGGACCTTTTTTTTCTCATGCGATTTT	3330 a.u.
CATACCCAACCTTGCCTGGTGGGTGAAGATATTTGT	4590 a.u.
TTCAATGGGACCCATCACGGCCATGACGATATCCAG	3740 a.u.
TACGTTGCTGTATTCCCCGTGGGACATTCTCCAAGT	9260 a.u.
TTGACGCTGTGTCTCCTCGTGTGAAATCGCAGTACA	8060 a.u.
AACCATCCCAAACACAAAGCAATCTTTACTCTACTT	3490 a.u.
GTCTTGTCTCATTGAACTGTGGGTGTCCCCACTTCA	4460 a.u.
GATGTAGATTACACTCTCATGACAATAAGCCACCCG	3600 a.u.
CTTCTGTAAATTTGTCACAGCACTTGACGCGCCCCG	3470 a.u.
TCTCCCTCACTGCATCCCGTGACGGGTTTCTTAGCA	5990 a.u.
CTATTGTCTTAGAATCACGTGGACCCTAGACTATAG	15600 a.u.
CTTCTGTAAATTTGTTAGGTGGGTGGACGCGCCCCG	3980 a.u.
CTTTCCCGATCTTGTCACACTACTTTAGCACATTTG	4980 a.u.
TAAAAAGGCATTGAACTCGTGGTGACGGGCATACCC	9620 a.u.
TCTAATGGTACCCCAAATATCTTATTATGAGTTTTA	2570 a.u.
TGCGCAACAACTTGAAACGTGGGTGTATGTCTAGAA	11700 a.u.

A few entries again (set 1):
Sequence	log2 enrichment
CCUCAAGUCCUGUGCUACACAUCGUAUGUACCGAAUCGGGUGGUGGGGUGGGGAAAGUAUUAUGUUACGCCGUUCGGAUCUGCACUUCCA	-0.977
AAGUCCUGUGCUACACAUCGUAUGUACCGAAUCGGGGAGGGGUUUUUGGGGUGGGGAAAGUAUUAUGUUACGCCGUUCGGAUCUGCACUU	-0.00925
CACAGACAACACGCACCCACACAGACACAGAGGGAAGGGGUUGGGAUGGGUACAGGGUGCACAGCAGGGCGGGGUAGGACCCCAGCCCCU	0.122
ACCAUGCAGGUGGGCAUCUUUGGGAAGUGGGGCAAGGGGGGGAUAGGGAGGGGGGUAACAAAAUGGGAACAGGUGGUCCCAGGUCGUUUC	1.49
